Experimental data collected from several papers.
Each line is one published result; not all experiments were run side by side. ± gives the spread as reported.

The HORAC of `CC(C)C1=C(O)C(=O)C2=C(C=C[C@H]3C(C)(C)CCC[C@]23C)C1=O` is reported as 0.294 Trolox equivalents (hydroxyl radical absorbance capacity, fluorometric).
Under mRNA level, `Cc1ccc(=O)n(-c2ccc(O)cc2)c1` is recorded as “decreased” (item: Nfkb1, Il1b, Tnfa; BALB/c mouse, CCl4 liver injury, liver; oral, 1 mmol/kg daily, 4 weeks).
`Nc1nc2cnc(C(=O)N3CCOC[C@@H]3c3ccc(C(F)(F)F)cc3)cc2c2c1COC2` has an SDMA H-score of 0 (immunohistochemistry; human, tumour biopsy; concentration not given, cycle 2 day 1; direction not given).
The PT of `Cc1ccc(C(=O)Nc2ccc(CP(=O)(O)O)cc2CP(=O)(O)O)cc1NC(=O)c1cccc(NC(=O)Nc2cccc(C(=O)Nc3cc(C(=O)Nc4ccc(CP(=O)(O)O)cc4CP(=O)(O)O)ccc3C)c2)c1` is reported as 14.2 ± 1.3 s (human plasma; 282 µM).
For `Oc1ccc2nc1CNCCNCCNC2`, “log beta MHL” read 13.2 (pH-potentiometric titration; 298 K, I 0.15 M NaCl, together with: Mg2+).
Under cytokine level, `COc1cc(O)c(Cl)cc1/C=C/C(=O)c1ccc(C(F)(F)F)cc1` is recorded as “decreased” (item: TNF-α, IL-6, IL-1β; mouse LPS acute lung injury, BALF; dose not given; reference: LPS alone).
`O=C(CN1CCC(O)CC1)Nc1nccs1`: “inhibition in vivo” 52.3% (paw oedema; mouse; intraperitoneal, 200 µmol/kg).
Under “cytochrome c release”, `COc1cc(/C=C/C(=O)OCCCC[P+](c2ccccc2)(c2ccccc2)c2ccccc2)ccc1O` is recorded as 60 pmol/mg protein (rat liver mitochondria; 10 µM, 15 min).
With `FC(F)(F)c1ccccc1/N=c1\oc2ccccc2cc1-c1ccccc1` the oedema reduction was 48.9 ± 2% (rat, formalin paw oedema; intraperitoneal, 20 mg/kg, 4 h).
`C[C@@H](O)[C@H](N)C(=O)N1CCC[C@H]1C(=O)NCC(=O)NCC(=O)O`: “enthalpy of activation” 17 ± 1.91 kcal/mol (diketopiperazine formation, transition state theory; 1-propanol; concentration not given, 70, 80, 90 °C, 0.5% acetic acid).
For `O=C(OCc1cccc(O)c1O)c1ccc(O)c(CO)c1`, “time to blood pressure rise” read no more than 24 h (C57BL/6J mice; dose not given, after withdrawal day 1-7, together with: angiotensin II infusion).
`CCOC(=O)c1cc2c(N)c(C(=O)OC)sc2nc1C` — result for “time to return to baseline”: 12 h (wild-type mice; subcutaneous, 100 mg/kg).
With `CC/C=C\C/C=C\C/C=C\C/C=C\C/C=C\CCCCOC(CC)C(=O)O` (stereo not shown) the HbA1c change was -47% (ob/ob mice; dose not given, 4 weeks; reference: control).
`CC[C@@H](C)[C@H]1NC(=O)[C@@H]([C@H](C)O)NC(=O)[C@@H](Cc2c[nH]cn2)NC(=O)CNC(=O)[C@@H](CCCNC(=N)N)NC(=O)CNC(=O)[C@@H](Cc2ccccc2)NC1=O`: “retinal vascular permeability” “decreased” (Evans blue; rat, STZ diabetic for 6 weeks; eye drop, 0.5% once daily, 5 days).
`CCOC(=O)Cc1csc(NC(=O)CCN2CCC(O)CC2)n1`: “inhibition in vivo” 59.6% (paw oedema; mouse; intraperitoneal, 200 µmol/kg).
For `COc1c2c(cc3oc(CO)cc(=O)c13)O[C@H](C(C)(C)O)C2`, “hot plate latency” read 8.17 ± 1.18 s (analgesic effect; Kunming mouse, female; oral, 2 mg/kg, 0 h, 55 °C, before dosing, 30 s cut-off).
For `NCCCC[C@H](N)C(=O)N1CCC[C@H]1C(=O)NCC(=O)NCC(=O)O`, “enthalpy of activation” read 22.9 ± 6.21 kcal/mol (diketopiperazine formation, transition state theory; 1-propanol; concentration not given, 70, 80, 90 °C, 0.5% acetic acid).
With `COc1ccc(C2CC(c3ccc(C)cc3)=Nc3ccccc3S2)cc1OC` (stereo not shown) the blood glucose was 112 ± 4.57 mg/dL (rat, normal, overnight fasted; oral, 10 mg/kg, 90 min, oral glucose tolerance test, together with: glucose 3 g/kg oral).
For `C=C(c1ncc(C(=O)O)cn1)c1cc2c(cc1C)C(C)(C)CCC2(C)C`, “log2 fold change” read 0.39 (RNA sequencing, item: Dlx2 mRNA; rat, brain; dose not given, 24 h, single dose; reference: vehicle).
The log kcat of `CC#N.O=S(=O)([O-])C(F)(F)F.O=S(=O)([O-])C(F)(F)F.Oc1ccc(O)c(CN(CCN(Cc2ccccn2)Cc2ccccn2)Cc2ccccn2)c1.[Mn+2]` is reported as 7.99 (superoxide dismutation, stopped-flow).
`O=C1CCN(Cc2ccccc2)CC1C(C[N+](=O)[O-])c1ccccc1` (stereo not shown): “tail flick response” 35.1% (tail immersion test; BALB/c mice; ip, 25 mg/kg, 1 h).
`NC(=O)CC[C@H](N)C(=O)N1CCC[C@H]1C(=O)NCC(=O)NCC(=O)O`: “enthalpy of activation” 19.8 ± 2.63 kcal/mol (diketopiperazine formation, transition state theory; 1-propanol; concentration not given, 70, 80, 90 °C, 0.5% acetic acid).
`CC[C@H]1[C@@H](O)[C@@H]2[C@H](CC[C@]3(C)[C@@H]([C@H](C)CCOS(=O)(=O)[O-])CC[C@@H]23)[C@@]2(C)CC[C@@H](O)C[C@@H]12.[Na+]`: “whole-body lean mass” 33.6 ± 0.8% (EchoMRI; ob/ob NASH mouse model; oral, 10 mg/kg once daily, 8 weeks; reference: body weight).
`O=C1NC(=O)C(C2CCOc3cc(Oc4ccc(C(F)(F)F)cc4Cl)ccc32)S1` (stereo not shown) gave a GLP-1 release of 1.1 ± 0.06 fold change (item: total GLP-1; colonic crypt cultures, Gpr40 knockout, mouse, ex vivo; 1 µM, 2 h; reference: vehicle).
`C=CCC1C(=O)C=C(OC)C2(OC)C(C)C(c3ccc4c(c3)OCO4)OC12` (single isomer, unassigned; (-)) — result for mRNA level: “decreased” (item: CYP7A1, CYP8B1; mouse, bile duct ligation, liver; dose not given).
`CC(C)n1cnc(-c2ccc(F)cc2)c1-c1ncc(C(=O)Nc2ccc(N3CCN(C)CC3)cc2)[nH]1` — result for “FVC change from baseline”: 19.7 mL (IPF patients; 30 mg twice daily, 12 weeks, mean).
`COc1cc(CN2CCN(c3ccccc3F)CC2)c2cc3[n+](cc2c1O)CCc1cc2c(cc1-3)OCO2` gave an FRAP absorbance of 1.4 ± 0.72 a.u. (ferric reducing power, FRAP; 10 µg/mL, 30 min; higher is greater reducing power).
`CCCCCCCCCCCCCCc1sc(NC(=O)CN2CCC(O)CC2)nc1-c1ccccc1` — result for “inhibition in vivo”: 44.2% (paw oedema; mouse; intraperitoneal, 200 µmol/kg).
For `FC(F)(F)Oc1ccc(/N=c2\oc3ccccc3cc2-c2ccccc2)cc1`, the oedema reduction was 45.8 ± 3.2% (rat, formalin paw oedema; intraperitoneal, 10 mg/kg, 4 h).
For `NC(=O)C[C@H](N)C(=O)N1CCC[C@H]1C(=O)NCC(=O)NCC(=O)O`, “ΔS‡ at 298.15 K” read -64 ± 2 J/(mol·K) (diketopiperazine formation, transition state theory; 1-propanol; 70, 80, 90 °C, 0.5% acetic acid).
`CCCCCCCCCCCCCCCC(=O)NCCCC[C@H](N)C(=O)N[C@@H](CC(=O)O)C(=O)N[C@H](C(=O)N[C@@H](Cc1c[nH]cn1)C(=O)N[C@@H](Cc1ccccc1)C(=O)N[C@@H](CCCNC(=N)N)C(=O)N[C@H](C(=O)N[C@@H](Cc1ccccc1)C(=O)N[C@@H](CCCNC(=N)N)C(=O)N[C@@H](CO)C(=O)N[C@@H](Cc1c[nH]cn1)C(=O)N[C@@H](CO)C(=O)N[C@@H](CC(=O)O)C(=O)N[C@@H](Cc1ccc(O)cc1)C(=O)N[C@@H](CCCNC(=N)N)C(=O)N[C@@H](CCCNC(=N)N)C(=O)N[C@H](C(=O)O)[C@@H](C)CC)[C@@H](C)O)[C@@H](C)O`: “final body weight” 20.9 ± 0.2 g (C57BL/6J mouse, MCD diet; intraperitoneal, 0.6 nmol/g, 3 weeks, 3 times weekly).
For `C=C(c1cc(F)c(C(=O)O)c(F)c1)c1cc2c(cc1C)C(C)(C)CCC2(C)C`, “log2 fold change” read 0.87 (RNA sequencing, item: Pdk4; rat, brain; dose not given, 24 h; reference: vehicle).
`N[C@@H](CCC(=O)O)C(=O)N1CCC[C@H]1C(=O)NCC(=O)NCC(=O)O` — result for “enthalpy of activation”: 16.5 ± 3.59 kcal/mol (diketopiperazine formation, transition state theory; 1-propanol; concentration not given, 70, 80, 90 °C, 0.5% acetic acid).
`C=CC(=O)Nc1cc(Nc2nccc(-n3ccc4nc(OC)ccc43)n2)c(OC)cc1N(C)CCN(C)C`: “phospho-EGFR and Ki67” “decreased” (BALB/c nude mouse, H1975 xenograft; dose not given, 24 h; reference: vehicle).
Under “Iba-1 level reduction”, `CCC1CC2C(C)=CC3C(=O)CCCC3C=CC(C)=CC2C(=O)O1` (stereo not shown) is recorded as 22.7% (western blot; 5XFAD transgenic mouse, hippocampus; oral, 30 mg/kg/day three times per week, 1 month; reference: vehicle).
`Cc1c(C(=O)Nc2ccn(C)n2)ncn1Cc1cccc(C(F)(F)F)c1`: “pole test performance” “no effect” (human WT αS transgenic mouse; dose not given; reference: placebo).
For `Cn1c(=O)c(=O)n(C)c2cc(S(=O)(=O)Nc3ccc(S(=O)(=O)Nc4ncccn4)cc3)ccc21`, the blood glucose was 98.3 ± 8.11 mg/dL (IPGTT; HFD/STZ diabetic male albino mice; 10 mg/kg, 3 h).
`CC[C@H](C)[C@H](N)C(=O)N1CCC[C@H]1C(=O)NCC(=O)NCC(=O)O` — result for “enthalpy of activation”: 17.9 ± 1.43 kcal/mol (diketopiperazine formation, transition state theory; 1-propanol; concentration not given, 70, 80, 90 °C, 0.5% acetic acid).
For `C[C@H](NC(=O)COC(=O)[C@H](C)NC(=O)CO)C(=O)O`, “depolymerization rate constant” read 22.7 h⁻¹ (water; pH 7, 50 °C).
For `CCCN1C(=O)CCc2cc(NS(=O)(=O)Cc3ccccc3)ccc21`, water loss read “no effect” (Arabidopsis thaliana Col-0, one month old, detached rosette leaves; 50 µM spray, rapid dehydration; reference: DMSO).
`NC[C@@H](C(=O)Nc1ccc(-c2cn[nH]c2)cc1)c1ccccc1` — result for “mean IOP reduction”: 28.5% (normotensive Macaca cyclopis monkeys; topical, 0.1 %).
For `CCCCCCOC(=O)Cc1c(C)n(C(=O)c2ccc(Cl)cc2)c2ccc(OC)cc12`, “latency of nociceptive response” read 16.4 ± 0.68 s (hot plate test; BALB/c mice; 100 mg/kg, 90 min).
`COc1ccc2nc3ccc(OC)cc3c(SCCCN)c2c1`: “26S proteasome activity” “decreased” (MM1.S, J:NU nude mouse xenograft, tumour lysate; 50 mg/kg).
With `CC1SC(N/N=C2\c3ccccc3-c3nc4cc(F)ccc4nc32)=NC1=O` (stereo not shown) the blood glucose was 294 ± 31.3 mg/dL (mice with STZ-induced diabetes; oral, 25 mg/kg, 216 h, day 9).
For `Cc1nc(C)c(C=[N+]([O-])C(C)(C)C)nc1C`, “protein level increase” read 42.2% (Western blot, item: PGC-1α; mouse, MPTP model, substantia nigra nuclei; 30 mg/kg).
`[2H]C([2H])([2H])C(c1cc2nnc(-c3cc(F)ccc3F)n2nc1OCc1ncnn1C)(C([2H])([2H])[2H])C([2H])([2H])[2H]` — result for “spike-wave discharge rate”: “decreased” (GAERS rats; oral, 0.075 mg/kg, 10 to 130 min; reference: vehicle).

Repeated from above:
For `C=C(c1ncc(C(=O)O)cn1)c1cc2c(cc1C)C(C)(C)CCC2(C)C`, “log2 fold change” read 0.39 (RNA sequencing, item: Dlx2 mRNA; rat, brain; dose not given, 24 h, single dose; reference: vehicle).
The log kcat of `CC#N.O=S(=O)([O-])C(F)(F)F.O=S(=O)([O-])C(F)(F)F.Oc1ccc(O)c(CN(CCN(Cc2ccccn2)Cc2ccccn2)Cc2ccccn2)c1.[Mn+2]` is reported as 7.99 (superoxide dismutation, stopped-flow).
`O=C1CCN(Cc2ccccc2)CC1C(C[N+](=O)[O-])c1ccccc1` (stereo not shown): “tail flick response” 35.1% (tail immersion test; BALB/c mice; ip, 25 mg/kg, 1 h).
`NC(=O)CC[C@H](N)C(=O)N1CCC[C@H]1C(=O)NCC(=O)NCC(=O)O`: “enthalpy of activation” 19.8 ± 2.63 kcal/mol (diketopiperazine formation, transition state theory; 1-propanol; concentration not given, 70, 80, 90 °C, 0.5% acetic acid).
`CC[C@H]1[C@@H](O)[C@@H]2[C@H](CC[C@]3(C)[C@@H]([C@H](C)CCOS(=O)(=O)[O-])CC[C@@H]23)[C@@]2(C)CC[C@@H](O)C[C@@H]12.[Na+]`: “whole-body lean mass” 33.6 ± 0.8% (EchoMRI; ob/ob NASH mouse model; oral, 10 mg/kg once daily, 8 weeks; reference: body weight).
`O=C1NC(=O)C(C2CCOc3cc(Oc4ccc(C(F)(F)F)cc4Cl)ccc32)S1` (stereo not shown) gave a GLP-1 release of 1.1 ± 0.06 fold change (item: total GLP-1; colonic crypt cultures, Gpr40 knockout, mouse, ex vivo; 1 µM, 2 h; reference: vehicle).
